Measured values from different studies.
Each numbered part is a random draw from the data of one study; scales do not carry over between parts.

Block 1
Target: Fragile X messenger ribonucleoprotein 1, C-terminal low-complexity region (Fmr1, Mus musculus, UniProt P35922)
Technique: RNA Bind-n-Seq
Molecule type: RNA
Medium: in vitro
Tested at: 200 nM
Setting: whole 134-nt RNA, ends assumed
With: 150 mM LiCl
Baseline: input library
Reading: higher = stronger binding
All molecules: 7-deaza-guanosine replaces G
Shared flanks, not repeated: GGGAGUUCUACAGUCCGACGAUC … UGGAAUUCUCGGGUGUCAAGG
| Strand | log2 enrichment |
| --- | --- |
| AGUCCUGUGCUACACAUCGUAUGUACCGAAUCGGGAAAGGGAAAGGGUUUUUUUGGGAAAGUAUUAUGUUACGCCGUUCGGAUCUGCACU | -1.78 |
| CUCAAGUCCUGUGCUACACAUCGUAUGUACCGAAUCGGGUGGGGUGGGGUGGGAAAGUAUUAUGUUACGCCGUUCGGAUCUGCACUUCCA | -0.576 |
| CCUGUGCUACACAUCGUAUGUACCGAAUCGGGGCCCCCCGGCCCCCCGGGGCCCCCCGGGGAAAGUAUUAUGUUACGCCGUUCGGAUCUG | -1.23 |
| CUGUGCUACACAUCGUAUGUACCGAAUCGGGAAAAAAAGGGGAAAAAAAGGGGAAAAAAAGGAAAGUAUUAUGUUACGCCGUUCGGAUCU | 0.497 |
| AAGUCCUGUGCUACACAUCGUAUGUACCGAAUCGGAAAAAAAGGUUUUUGGAAAGGAAAGUAUUAUGUUACGCCGUUCGGAUCUGCACUU | -2.72 |
| CACAGACAACACGCACCCACACAGACACAGAGGGAAGGGGUUGGGAUGGGAACAGGGUGCACAGCAGGGCGGGGUAGGACCCCAGCCCCU | 0.631 |
| UGGCCCUGGUGGCAUGCGGGGAGGAAGAGGUGGCGUCAUGGAUCGUGGUGGUCCCGGUGGAAUGUUCAGAGGUGGCCGUGGUGGAGACAG | 1.18 |
| GCAGGAAGUAAAAACAAAUGGAAAAGCUUCGGAUAGUGGCAGGGGUGGGGGUUGCUAAGGAAAGGGUGGGAUGGGAGUGGGUAAAGAGUU | 1.3 |

Block 2
Target: Histone acetyltransferase KAT6A, winged helix 2, GST fusion (KAT6A, Homo sapiens, UniProt Q92794, residues 85-181)
Technique: protein binding microarray
Molecule type: double-stranded DNA, one strand shown
Medium: in vitro
Tested at: not given
Setting: 8-mer, flanks averaged, mean of 2 arrays, mostly near background
Baseline: not given
Reading: higher = stronger binding
Residues (chain): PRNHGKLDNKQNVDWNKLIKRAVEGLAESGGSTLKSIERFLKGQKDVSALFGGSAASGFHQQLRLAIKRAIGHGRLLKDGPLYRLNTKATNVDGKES
| Strand | E-score |
| --- | --- |
| ATTCACCG | -0.0821 |
| ACGAAAAG | -0.0281 |
| CAAATGGA | 0.00451 |
| TGGTGGAA | -0.0465 |
| ATCTATGG | -0.13 |
| TCGGGAGA | 0.0132 |
| GGATCGTA | -0.158 |
| ATTGCCTC | 0.127 |
| ACTTAGAG | -0.0499 |
| ATTCGAGA | -0.105 |
| CATATAGG | -0.155 |
| CAGGTGCG | 0.085 |
| GTAATGTA | -0.301 |
| AGTGTCGG | 0.0159 |
| TAACTAAA | -0.182 |
| TCTCATCA | -0.0588 |

Block 3
Target: RNA binding protein fox-1 homolog 2, RRM domain, GST-SBP tag (RBFOX2, Homo sapiens, UniProt O43251-10, residues 100-194)
Technique: RNA Bind-n-Seq
Molecule type: RNA
Medium: in vitro
Tested at: 365 nM
Setting: natural RNA segment, single round, ends assumed
Baseline: no-protein control
Reading: higher = stronger binding
Shared flanks, not repeated: GGGAGUUCUACAGUCCGACGAUC … UGGAAUUCUCGGGUGCCAA
Target sequence (chain): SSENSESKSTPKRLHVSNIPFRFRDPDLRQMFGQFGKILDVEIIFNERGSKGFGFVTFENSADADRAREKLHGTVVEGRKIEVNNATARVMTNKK
| Strand | RBNS enrichment (R) |
| --- | --- |
| GAGGCGGAGGUUGCAGUGUGCCAAGAUCAUACCACUGCACUCCAGCCCUGGUGACAGAGGAGACCCCGUCUCAAAAAUUGAUUGAUCAAUUCAGCAUCUGAGGGCUGCAA | 0.407 |
| UUGAUAAUAGUAGGUGAAGGUUCUGGAGGCCUUUACCAGGACAGAGCUAGAAUCGAGCCAGUAAACAGUCUAAGCCAGAAAAAUAAUUUUCAAAUGCUUUACCUGUAUUU | 0.605 |
| CAGUAUACAGAUAACCACAAAGUUGUUAUUUUUAACCAAAAUAUACAUUUCAUAAUGUUGGCACUGGAGUAUUAUAAGAGAUCAUGAAUGUUUCCUUAAUUAUCAUGGCA | 2.39 |
| UGAUGAGGCCCCAGCUGGGGCCUGUUGUCUGGGACCCUCCCUCUCCUGAGAGGGGAGGCCUGGUGGCUUAGCCUGGGCAGGUCGUGUCUCCUCCUGACCCCAGUGGCUGC | 0.291 |
| CAGACACUUAAAGUAUUUAUGCUUAAGUGUGCAUUUUUUUAUUCUAAUAUUCCUUCUAGUCAGUGGAAAUUUGUAUUCCCAUACAAACUCAGAAUGCUAUAUUUUUAACA | 0.679 |
| AACGCCUGUUACACACAAACUGUUGUGGGUUCCUGCCAGGCUUGAAGAAAAUGAUCUGAAUUUUUUCCUCCUUUUGGUUUUAUUUUGUUGGUUUAUUUUGUGUUUUCUUU | 1.09 |
| CCGAGUCCCACCGUGUGUCCGUUGUAAGUCCGGUGGAUGUGGCUGGGGUUUCCUGGUAUUGUGGAGGCACCCAGGUUGUCCAUGCUUGGGAUUCUGGGGGAAGGAGAGAA | 2.17 |
| CUCUGUGUAAAGACAGAUUAUUUUCUAGGAUUCAUUCGAAAGCACAUCUUUUAAAUUAAGCCACUGUGCUGCCUUAGAUUCCGUGGGUCAUGAGCCAUGAGUCCUGGGAC | 0.279 |

Block 4
Target: Interferon regulatory factor 7, full length, phosphomimetic (IRF7, Homo sapiens, UniProt Q92985, residues 1-503, S471D/S472D/S475D/S476D/S477D/S483D/S484D/S487D)
Chain of UniProt Q92985 (whole entry, unmodified, looked up): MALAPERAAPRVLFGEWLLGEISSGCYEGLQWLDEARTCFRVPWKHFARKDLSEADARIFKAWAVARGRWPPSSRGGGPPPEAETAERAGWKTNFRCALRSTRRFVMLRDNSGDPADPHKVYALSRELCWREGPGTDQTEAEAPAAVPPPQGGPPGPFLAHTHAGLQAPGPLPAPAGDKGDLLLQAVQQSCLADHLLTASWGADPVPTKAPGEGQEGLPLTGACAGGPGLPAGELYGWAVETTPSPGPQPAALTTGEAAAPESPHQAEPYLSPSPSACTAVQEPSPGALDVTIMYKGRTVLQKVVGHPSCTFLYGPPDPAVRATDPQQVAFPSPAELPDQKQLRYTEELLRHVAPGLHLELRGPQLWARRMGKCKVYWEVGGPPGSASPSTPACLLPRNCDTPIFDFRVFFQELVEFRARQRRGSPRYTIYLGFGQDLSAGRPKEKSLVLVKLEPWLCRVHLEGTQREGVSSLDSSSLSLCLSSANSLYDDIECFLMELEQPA
Technique: protein-binding microarray
Molecule type: double-stranded DNA, one strand shown
Medium: in vitro
Tested at: 2200 nM top
Setting: 60-bp whole probe
With: salmon DNA 0.4 mg/ml
Baseline: random background probes
Reading: higher = stronger binding
Shared flanks, not repeated: GCCTAGCAC … GTCTTGATTCGCTTGACGCTGCTG
| Strand | fitted relative affinity [z-score] |
| --- | --- |
| CTAGGTATCGGGTTTCGGTTAGTGCTA | 3.78 |
| TCATTTTCCTAATTGAAACTGTGCTAG | 3.4 |
| GACGATTTCAGACTGGAGTCGTGCTAG | 0.485 |
| TTAGGTATCGGGGCTGGGTTAGTGCTA | -0.0791 |
| TTAGAACTGAGTATCGATGAGTGCTAG | -0.57 |
| TTAGGTTTCAGTATCGGTTAGTGCTAG | 2.63 |
| GACGCTTTCCTTTTCCTGACGTGCTAG | 6.43 |
| GACGCTATCCTTCTCCTGACGTGCTAG | 1.64 |
| TGAGGTTTCGACTATCGGTTAGTGCTA | 2.87 |
| TTTACTTTCTATCTCTGTTTGTGCTAG | 6.88 |
| GACTGTTTCGGGTTTCGGGACGTGCTA | 7.59 |
| TTAGATATCGGCTATCGATTAGTGCTA | -0.154 |
| TTAGCTTTCAGTTTCGATTAGTGCTAG | 9.56 |
| TTAGAATTCGGGTTTCGATTAGTGCTA | 3.21 |
| GACGATTCCGGGTTTCGAGACGTGCTA | 2.51 |
| GACGGACTGGACACTGGAGACGTGCTA | -0.829 |
| GTCCCTATCTCCTCACAGACCGTGCTA | 2.24 |
| TTGGGACTGCTTCTCCTTTAGTGCTAG | 0.765 |
| CCTATTATATATATCATAAGGTGCTAG | 1.03 |

Excerpt of the above (block 2):
| Strand | E-score |
| --- | --- |
| ATTCACCG | -0.0821 |
| ACGAAAAG | -0.0281 |
| CAAATGGA | 0.00451 |
| TGGTGGAA | -0.0465 |
